# Experimental data gathered from unrelated publications.
# Lines come from different studies, so protocols differ. Values joined by “and” are separate records of one study, mostly repeats; a detail may differ.
# UniProt P11712, sequence (whole entry, looked up): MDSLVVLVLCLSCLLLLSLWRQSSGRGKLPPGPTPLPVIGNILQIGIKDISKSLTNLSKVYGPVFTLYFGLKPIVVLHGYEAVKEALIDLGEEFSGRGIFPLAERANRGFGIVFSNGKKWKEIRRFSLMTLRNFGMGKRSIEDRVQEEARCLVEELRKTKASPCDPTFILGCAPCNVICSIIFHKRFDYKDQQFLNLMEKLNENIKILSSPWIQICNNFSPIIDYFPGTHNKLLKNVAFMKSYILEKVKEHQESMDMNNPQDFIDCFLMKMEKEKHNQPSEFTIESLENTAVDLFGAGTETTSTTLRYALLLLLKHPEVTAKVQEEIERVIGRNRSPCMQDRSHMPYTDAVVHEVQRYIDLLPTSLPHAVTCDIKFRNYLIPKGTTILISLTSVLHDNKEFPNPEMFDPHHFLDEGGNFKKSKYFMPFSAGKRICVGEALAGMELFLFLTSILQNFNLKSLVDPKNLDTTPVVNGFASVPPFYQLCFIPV
SMILES,tested on,test,test system,conditions,scale,measurement,value
CNS(=O)(=O)Nc1nccc(Cc2c(C)c3ccc(Oc4ncccc4F)cc3oc2=O)c1F,TYK-nu,"cell viability, CellTiter-Glo",,7 days,,IC50,4.92 nM
CCCC[C@H](NC(C)=O)C(=O)N[C@@H](CO)C(=O)N[C@H](C(=O)N1CCC[C@H]1C(=O)N[C@]1(C)CCCCCCC=CCCC[C@@](C)(C(=O)N[C@@H](Cc2ccccc2)C(=O)N[C@@H](CCCCN)C(=O)N[C@@H](CCCNC(=N)N)C(=O)N[C@@H](CC(C)C)C(=O)N[C@@H](CCC(N)=O)C(N)=O)NC(=O)[C@H](CCCNC(=N)N)NC(=O)[C@H](CCCC)NC(=O)[C@H](CC(C)C)NC(=O)[C@H](CCCNC(=N)N)NC(=O)[C@H](CCCNC(=N)N)NC(=O)[C@H](CCCNC(=N)N)NC1=O)[C@@H](C)O,proteinase K,LC-MS,,"25 µM, 369.1 min, pH 7.4",,remaining peptide,55.8% and 52.4%
COC1CN([C@H]2CC[C@H]([C@@]3(C)Oc4c(Cl)cc(C(=O)NCc5c(SC)cc(C)[nH]c5=O)c(C)c4O3)CC2)C1,,"RNA-seq, item: BEND7 mouse homolog","mouse, HT-1376 xenograft, whole blood",dose not given,baseline: vehicle,log2 fold change,5.54
O=C(Nc1cnccc1-c1ccc([18F])nc1)c1ccnc(NC(=O)C2CC2)c1,,,"FVB/NJ mice (both sexes), pancreas","intravenous, dose not given, 120 min",,SUV,0.145
CNC(=O)C1CCCN(C(=O)C2CC3CCC2N3C(=O)[C@@H]2C[C@@H](O)CN2C(=O)NCc2cccc(Cl)c2F)C1 (mixture of isomers),"Cytochrome P450 2C9 (CYP2C9, Homo sapiens, UniProt P11712)",preincubation without NADPH,human,50 µM,baseline: negative control,remaining activity,102% and 103% and 105%
COc1ccc2c(c1)C(C)(C)C(/C=C/C1=C(Oc3ccc(C(=O)NCCCCOc4cc(CN(Cc5ccccn5)Cc5ccccn5)cc(CN(Cc5ccccn5)Cc5ccccn5)c4)cc3)C(=C/C=C3/N(CCCCS(=O)(=O)[O-])c4ccc(OC)cc4C3(C)C)CCC1)=[N+]2CCCCS(=O)(=O)[O-].O=[N+]([O-])[O-].O=[N+]([O-])[O-].[99Tc+].[C-]#[O+].[C-]#[O+].[C-]#[O+].[Zn+2],Staphylococcus aureus,,"BALB/c mice, bacterial myositis, stomach with contents",12 h,,tissue uptake,1.24 %ID/g
Nc1ncc(-c2cc(-c3cnn(CC(F)(F)F)c3)ncc2F)nc1C(=O)NC1CNCC(F)C1 (stereo not drawn),STK33,KINOMEscan,,1 µM,baseline: DMSO control,remaining binding,90%
CC(C)(O)c1ncc([S@](N)(=O)=NC(=O)Nc2c3c(cc4c2CCC4)CCC3)s1,,item: Vascular disorders,healthy human volunteers,"oral, 10 mg once daily, 14 days, capsule formulation",,subjects with adverse events,17%
COCC1CN(C2CCN(c3cc(OC)c(Nc4ncc(Br)c(Nc5ccc6c(c5P(C)(C)=O)OCCO6)n4)cc3C)CC2)C1,,,"EGFR-mutant NSCLC patients, plasma","oral, 60 mg multiple doses, geometric mean",,Cmax at steady state,1020 ng/mL
O=C1C2CC3CC1CC(C(=O)N1CCN(c4ccc([N+](=O)[O-])c5ncccc45)CC1)(C3)C2,Salmonella typhimurium,Ames test,TA97a,"0.78 µg/well, without S9 activation",,revertant colony count,23 colonies/well
CC(C)OCCOCc1ccc(OCC(O)CN(N=O)C(C)C)cc1 (stereo not drawn),Salmonella typhimurium,Ames test,TA100,"15.8 µg/plate, 30 % rat S9",baseline: solvent control,revertant fold increase,1 fold
CCN(CC)CC#CCNc1ccnc2cc(Cl)ccc12,Salmonella typhimurium,mini-Ames test,TA97a,"500.0 µg/well, with rat liver S9",,revertants per well,0
Cc1ncsc1-c1ccc(C(C)NC(=O)C2CC(O)CN2C(=O)C(NC(=O)CCCCCCCCCCN2CCCC(Nc3ncc(Cl)c(Nc4ccccc4S(=O)(=O)C(C)C)n3)C2)C(C)(C)C)cc1 (stereo not drawn),22Rv1,"RNA-seq, item: ZNF252P",,concentration not given,baseline: DMSO,log2 fold change,-1.36
CN1CCCNC(=O)c2cccc(c2)C(=O)NCCCN(C)CCCNc2cccc3c2C(=O)c2cccc(c2C3=O)NCCC1,mouse bone marrow cells,CCK-8,,"0.05 µM, 48 h",baseline: untreated,viability,99.2%
C=CC(=O)Nc1cccc(Cn2ncc3cnc(Nc4cnn(CCOC)c4)nc32)c1,TYRO3 human,"binding, KINOMEscan",,100 nM,lower = stronger binding,percent of control,83%

# Some of these lines once more:
SMILES,tested on,test,test system,conditions,scale,measurement,value
CCCC[C@H](NC(C)=O)C(=O)N[C@@H](CO)C(=O)N[C@H](C(=O)N1CCC[C@H]1C(=O)N[C@]1(C)CCCCCCC=CCCC[C@@](C)(C(=O)N[C@@H](Cc2ccccc2)C(=O)N[C@@H](CCCCN)C(=O)N[C@@H](CCCNC(=N)N)C(=O)N[C@@H](CC(C)C)C(=O)N[C@@H](CCC(N)=O)C(N)=O)NC(=O)[C@H](CCCNC(=N)N)NC(=O)[C@H](CCCC)NC(=O)[C@H](CC(C)C)NC(=O)[C@H](CCCNC(=N)N)NC(=O)[C@H](CCCNC(=N)N)NC(=O)[C@H](CCCNC(=N)N)NC1=O)[C@@H](C)O,proteinase K,LC-MS,,"25 µM, 369.1 min, pH 7.4",,remaining peptide,55.8% and 52.4%
COC1CN([C@H]2CC[C@H]([C@@]3(C)Oc4c(Cl)cc(C(=O)NCc5c(SC)cc(C)[nH]c5=O)c(C)c4O3)CC2)C1,,"RNA-seq, item: BEND7 mouse homolog","mouse, HT-1376 xenograft, whole blood",dose not given,baseline: vehicle,log2 fold change,5.54
